Measured values gathered from unrelated publications.
Each line is one published result; not all experiments were run side by side. Values joined by “and” are separate records of one study, mostly repeats; a detail may differ. Numbers after ± are the reported error.
UniProt Q16853, sequence (whole entry, looked up): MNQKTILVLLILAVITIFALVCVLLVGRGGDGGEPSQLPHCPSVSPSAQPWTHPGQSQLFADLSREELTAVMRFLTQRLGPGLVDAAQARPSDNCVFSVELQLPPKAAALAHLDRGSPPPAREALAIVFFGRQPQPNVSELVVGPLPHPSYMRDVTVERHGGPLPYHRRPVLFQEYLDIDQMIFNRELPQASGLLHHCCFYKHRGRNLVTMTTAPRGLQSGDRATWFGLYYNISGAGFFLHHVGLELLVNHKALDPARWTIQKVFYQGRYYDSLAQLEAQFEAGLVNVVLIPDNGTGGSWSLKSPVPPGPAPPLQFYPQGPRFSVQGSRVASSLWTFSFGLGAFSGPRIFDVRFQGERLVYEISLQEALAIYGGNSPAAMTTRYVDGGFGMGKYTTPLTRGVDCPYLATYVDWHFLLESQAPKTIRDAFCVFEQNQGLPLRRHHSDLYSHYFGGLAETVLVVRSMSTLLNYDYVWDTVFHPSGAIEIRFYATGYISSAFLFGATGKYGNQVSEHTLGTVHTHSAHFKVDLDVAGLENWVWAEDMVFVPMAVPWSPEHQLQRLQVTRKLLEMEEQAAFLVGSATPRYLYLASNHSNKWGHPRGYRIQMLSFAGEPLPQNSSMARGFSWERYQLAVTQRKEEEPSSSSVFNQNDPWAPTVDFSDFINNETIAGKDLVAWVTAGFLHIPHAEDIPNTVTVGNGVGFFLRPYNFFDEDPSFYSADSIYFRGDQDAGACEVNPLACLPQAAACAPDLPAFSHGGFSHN

SMILES | tested on | test | test system | setting | how to read | endpoint | result
CCN1/C(=C/C(C)=O)Sc2ccc(F)cc21 | – | – | cynomolgus monkey | oral, 30 mg/kg, 2 h post-dose | – | PR interval | 88 ± 4 ms
Cc1cc(C(=O)NC(C)(C)COc2cccc3c2C(N)=NS(=O)(=O)N3)cc(C)n1 | human peripheral blood lymphocytes | CBPI, concurrent micronucleus test | – | 250 µg/mL, 4 h | relative to: vehicle control | cytotoxicity | -2%
Cc1cc(Nc2ccc(S(F)(F)(F)(F)F)cc2)n2nc(C(C)(F)F)nc2n1 | Plasmodium vivax | 12-lead ECG | malaria patients | oral, 800 mg, increase above 30 ms | – | patients with QTcF increase | 16.7%
N[C@@H](CC(=O)O)C(=O)O | Escherichia coli | – | MG1655, M9 medium | 1 mM, 1 mM equimolar amino acid mixture | – | uptake half-time | 6.4 h
NCc1cc2c(cc1F)C(=O)N(C1CCC(=O)NC1=O)C2 (stereo not shown) | AOC3 (Homo sapiens, UniProt Q16853) | substrate, LC-MS/MS | cirrhotic human liver lysate | 31.25 µM, 60 min, pH 7.4 | – | concentration | 3720 ng/mL and 3870 ng/mL
CCn1c(=O)c2c(nc(/C=C/c3ccc(OC)c(OC)c3)n2C)n(CC)c1=O | MDCK | – | – | 1 µM, 90 min, pH 6.5 apical, 7.4 basolateral, basolateral to apical | – | Papp | 35.8 ×10⁻⁶ cm/s
CCOc1c([C@H](C)n2nc(C)c3c(N)ncnc32)cc(Cl)c(F)c1[C@@H]1CNC(=O)C1 | – | – | human, indolent lymphoma, plasma | oral, 30 mg, day 15, geometric mean | – | AUC(0-tau) | 24.1 µM·h
O=C(O)c1cn(C2CC2)c2cc(N3CCNCC3)c(F)cc2c1=O | Escherichia coli | LC-MS/MS | BW25113 | 100 µM, 10 min, 37 °C | – | intracellular accumulation | 50 µM
C[C@H](N)C(=O)O | Escherichia coli | – | MG1655, M9 medium | 1 mM, 1 mM equimolar amino acid mixture | – | uptake half-time | 23.5 h
CC(=O)Nc1cccc(-n2c(=O)n(C3CC3)c(=O)c3c(Nc4ccc(I)cc4F)n(C)c(=O)c(C)c32)c1 | MeWo | resazurin | – | 6.25 nM, 72 h, unit not given | relative to: DMSO | viability | 0.793 and 0.601
C[C@@H](c1ncncc1F)[C@](O)(Cn1cncn1)c1ccc(F)cc1F | MDCK | – | – | 1 µM, 90 min, pH 7.4 apical, 7.4 basolateral, apical to basolateral | – | mass recovery | 101 ± 14%
O=C(O)c1cc(O)c2cccc(O)c2n1 | HCT-8 infected with Cryptosporidium parvum | Hoechst nuclei count | – | 1 mM, 24 h | relative to: PBS | host cell number | 0.915 ± 0.059
CC(=O)Nc1ccc(O)cc1 | MDCK | – | – | 1 µM, 90 min, pH 7.4 apical, 7.4 basolateral, apical to basolateral | – | mass recovery | 90 ± 5%
Cl.[2H]C([2H])([2H])CC(=O)c1cnc(NC(=O)C2CC2)cc1Nc1cccc(-c2ncn(C([2H])([2H])[2H])n2)c1OC | – | geometric mean | human | oral, 100 mg single dose, fasted, liquid | – | Vz/F | 104 L
Cc1cnc(Nc2ccc(OCCN3CCCC3)cc2)nc1Nc1cccc(S(=O)(=O)NC(C)(C)C)c1 | MDCK | permeability basolateral to apical | – | 1 µM, 90 min, pH 7.4 apical to 7.4 basolateral | – | Papp | 1.08 ×10⁻⁶ cm/s and 1.15 ×10⁻⁶ cm/s
CC[C@H](CO)N(CCN(N=O)[C@H](CC)CO)N=O | Escherichia coli | mutagenicity, Ames plate incorporation | WP2 uvrA pKM101 | 50 µg/plate, without S9, methanol | – | revertant colonies per plate | 128 ± 22

Excerpt of the above:
SMILES | tested on | test | test system | setting | how to read | endpoint | result
C[C@H](N)C(=O)O | Escherichia coli | – | MG1655, M9 medium | 1 mM, 1 mM equimolar amino acid mixture | – | uptake half-time | 23.5 h
